Literature values that unrelated publications cite.
Chain of UniProt P00698 (whole entry, looked up): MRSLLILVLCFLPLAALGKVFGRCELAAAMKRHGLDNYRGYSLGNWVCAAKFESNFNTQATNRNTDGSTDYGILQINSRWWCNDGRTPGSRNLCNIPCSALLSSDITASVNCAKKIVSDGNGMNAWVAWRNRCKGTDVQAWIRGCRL
Chain of UniProt P0AES9 (whole entry, looked up): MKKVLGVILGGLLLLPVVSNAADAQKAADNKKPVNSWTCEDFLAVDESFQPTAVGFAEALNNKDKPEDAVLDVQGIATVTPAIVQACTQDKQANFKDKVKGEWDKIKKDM

Substance	target or system	test	system	conditions	endpoint	result
LYZ (Gallus gallus, UniProt P00698)	–	NMR, item: Asp52	–	NaCl 100 mM, numbering of the source	pKa	3.6
insulin glulisine	–	item: total insulin	human	subcutaneous upper arm, 0.2 U/kg, dose-adjusted from 0.1 U/kg	AUC	2.12 nM·h
ITIQYNLT (sequence looked up)	H-2 class I histocompatibility antigen, K-B alpha chain, 27 (H2-K1, Mus musculus, UniProt P01901)	binding, competitor	peptide	purified MHC class I K allele, together with: radiolabelled standard peptide	IC50	352 nM
hdeA mature protein (Escherichia coli, UniProt P0AES9)	–	NMR, item: Glu19	–	298 K, numbering of the source	pKa	4.38

Repeated from above:
Substance	target or system	test	system	conditions	endpoint	result
insulin glulisine	–	item: total insulin	human	subcutaneous upper arm, 0.2 U/kg, dose-adjusted from 0.1 U/kg	AUC	2.12 nM·h
